Assay results gathered from unrelated publications.
“And” joins repeats or separate records; there may be more than shown. ± gives the spread as reported.
FAAH: Fatty-acid amide hydrolase 1 (FAAH, Homo sapiens, UniProt O00519)
UniProt O00519, sequence (whole entry, looked up): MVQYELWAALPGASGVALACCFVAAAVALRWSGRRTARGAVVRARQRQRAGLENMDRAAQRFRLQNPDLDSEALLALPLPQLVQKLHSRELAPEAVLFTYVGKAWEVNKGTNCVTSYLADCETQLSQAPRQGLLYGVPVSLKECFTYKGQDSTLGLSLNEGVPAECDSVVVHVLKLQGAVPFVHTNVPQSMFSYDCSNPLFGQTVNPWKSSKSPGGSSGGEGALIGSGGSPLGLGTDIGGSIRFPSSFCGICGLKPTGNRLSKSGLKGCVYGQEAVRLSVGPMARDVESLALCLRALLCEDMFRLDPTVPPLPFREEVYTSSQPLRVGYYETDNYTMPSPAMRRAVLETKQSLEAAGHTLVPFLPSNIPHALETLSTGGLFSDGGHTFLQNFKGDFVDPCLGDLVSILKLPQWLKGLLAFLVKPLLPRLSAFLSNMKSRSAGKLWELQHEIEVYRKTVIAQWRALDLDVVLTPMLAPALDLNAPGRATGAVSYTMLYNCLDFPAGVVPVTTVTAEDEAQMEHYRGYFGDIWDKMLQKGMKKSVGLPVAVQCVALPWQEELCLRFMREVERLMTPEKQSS
PARP1: Poly [ADP-ribose] polymerase 1 (PARP1, Homo sapiens, UniProt P09874)
UniProt P32745, sequence (whole entry, looked up): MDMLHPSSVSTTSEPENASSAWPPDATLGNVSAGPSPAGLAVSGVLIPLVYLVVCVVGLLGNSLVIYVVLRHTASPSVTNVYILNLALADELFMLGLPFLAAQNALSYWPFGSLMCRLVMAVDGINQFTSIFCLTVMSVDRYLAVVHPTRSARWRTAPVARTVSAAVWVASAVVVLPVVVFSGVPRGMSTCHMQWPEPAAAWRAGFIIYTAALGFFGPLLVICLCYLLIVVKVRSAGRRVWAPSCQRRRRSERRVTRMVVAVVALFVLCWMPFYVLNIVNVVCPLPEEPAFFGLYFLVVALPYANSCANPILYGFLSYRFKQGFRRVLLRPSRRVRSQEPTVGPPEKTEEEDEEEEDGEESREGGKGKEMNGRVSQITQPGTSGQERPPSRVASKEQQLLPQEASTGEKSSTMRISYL
UniProt Q86U42, sequence (whole entry, looked up): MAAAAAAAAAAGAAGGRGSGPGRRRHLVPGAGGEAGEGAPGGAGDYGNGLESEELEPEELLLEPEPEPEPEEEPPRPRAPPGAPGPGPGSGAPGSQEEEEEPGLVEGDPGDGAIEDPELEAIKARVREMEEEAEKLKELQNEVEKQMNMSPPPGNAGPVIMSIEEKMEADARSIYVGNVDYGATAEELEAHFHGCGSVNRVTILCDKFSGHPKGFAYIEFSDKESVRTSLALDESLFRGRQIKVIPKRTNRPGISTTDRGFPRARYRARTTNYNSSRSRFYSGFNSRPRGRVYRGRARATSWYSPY
UniProt P09874, sequence (whole entry, looked up): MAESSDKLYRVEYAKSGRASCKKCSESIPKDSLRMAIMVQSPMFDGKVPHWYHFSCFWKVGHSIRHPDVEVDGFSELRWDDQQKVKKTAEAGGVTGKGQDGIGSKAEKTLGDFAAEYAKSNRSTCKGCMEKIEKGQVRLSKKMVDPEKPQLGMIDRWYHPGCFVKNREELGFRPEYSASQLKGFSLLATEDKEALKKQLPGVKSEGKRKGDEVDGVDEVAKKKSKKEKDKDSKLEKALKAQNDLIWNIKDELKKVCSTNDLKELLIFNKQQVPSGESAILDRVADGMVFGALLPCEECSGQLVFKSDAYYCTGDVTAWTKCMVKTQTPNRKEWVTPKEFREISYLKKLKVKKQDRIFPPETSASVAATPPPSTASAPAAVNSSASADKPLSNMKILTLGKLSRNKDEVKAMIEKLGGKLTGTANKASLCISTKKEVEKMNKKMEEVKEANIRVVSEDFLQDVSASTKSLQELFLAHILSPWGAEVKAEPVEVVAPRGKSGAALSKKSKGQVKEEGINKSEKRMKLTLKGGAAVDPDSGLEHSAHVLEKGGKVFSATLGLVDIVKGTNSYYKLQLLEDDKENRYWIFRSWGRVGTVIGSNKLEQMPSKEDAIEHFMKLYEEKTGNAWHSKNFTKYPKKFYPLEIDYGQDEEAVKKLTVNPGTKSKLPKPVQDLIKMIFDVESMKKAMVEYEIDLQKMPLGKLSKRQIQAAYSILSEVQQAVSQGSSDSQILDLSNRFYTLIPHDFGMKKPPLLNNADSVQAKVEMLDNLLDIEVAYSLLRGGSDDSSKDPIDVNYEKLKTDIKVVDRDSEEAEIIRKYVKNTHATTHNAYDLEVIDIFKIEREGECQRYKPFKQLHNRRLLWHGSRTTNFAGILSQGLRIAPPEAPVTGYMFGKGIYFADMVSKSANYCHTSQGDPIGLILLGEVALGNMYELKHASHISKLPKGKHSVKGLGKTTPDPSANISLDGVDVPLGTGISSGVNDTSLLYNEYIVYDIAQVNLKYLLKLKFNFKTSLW
UniProt P27487, sequence (whole entry, looked up): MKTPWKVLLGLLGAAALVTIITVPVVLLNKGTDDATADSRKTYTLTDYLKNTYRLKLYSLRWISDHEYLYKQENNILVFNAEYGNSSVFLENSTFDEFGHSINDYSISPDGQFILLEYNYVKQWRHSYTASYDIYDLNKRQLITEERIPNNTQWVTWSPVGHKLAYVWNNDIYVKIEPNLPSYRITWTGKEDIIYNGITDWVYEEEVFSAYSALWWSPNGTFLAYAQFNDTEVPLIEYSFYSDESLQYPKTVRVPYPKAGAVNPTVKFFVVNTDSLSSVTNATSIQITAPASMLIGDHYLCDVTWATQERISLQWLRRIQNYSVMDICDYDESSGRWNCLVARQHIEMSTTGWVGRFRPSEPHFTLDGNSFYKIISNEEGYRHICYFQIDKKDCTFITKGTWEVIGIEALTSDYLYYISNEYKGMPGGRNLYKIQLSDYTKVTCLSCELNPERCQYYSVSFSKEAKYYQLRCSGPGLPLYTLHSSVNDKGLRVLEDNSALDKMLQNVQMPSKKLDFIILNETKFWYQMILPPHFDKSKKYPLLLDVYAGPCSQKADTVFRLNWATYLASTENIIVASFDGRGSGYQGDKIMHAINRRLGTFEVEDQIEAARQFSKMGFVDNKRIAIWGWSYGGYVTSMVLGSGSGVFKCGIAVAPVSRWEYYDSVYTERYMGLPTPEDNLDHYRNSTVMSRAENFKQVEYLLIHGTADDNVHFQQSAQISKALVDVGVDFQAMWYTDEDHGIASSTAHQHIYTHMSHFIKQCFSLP
UniProt Q14973, sequence (whole entry, looked up): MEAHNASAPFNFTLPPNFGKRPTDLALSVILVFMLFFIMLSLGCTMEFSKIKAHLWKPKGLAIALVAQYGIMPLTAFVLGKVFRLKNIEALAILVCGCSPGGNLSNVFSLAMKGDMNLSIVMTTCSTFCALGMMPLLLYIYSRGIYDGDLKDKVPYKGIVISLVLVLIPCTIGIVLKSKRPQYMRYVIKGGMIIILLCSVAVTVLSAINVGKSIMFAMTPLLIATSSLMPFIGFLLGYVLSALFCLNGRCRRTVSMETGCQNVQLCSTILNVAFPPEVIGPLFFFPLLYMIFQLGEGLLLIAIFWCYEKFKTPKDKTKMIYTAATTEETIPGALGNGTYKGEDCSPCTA
UniProt P07195, sequence (whole entry, looked up): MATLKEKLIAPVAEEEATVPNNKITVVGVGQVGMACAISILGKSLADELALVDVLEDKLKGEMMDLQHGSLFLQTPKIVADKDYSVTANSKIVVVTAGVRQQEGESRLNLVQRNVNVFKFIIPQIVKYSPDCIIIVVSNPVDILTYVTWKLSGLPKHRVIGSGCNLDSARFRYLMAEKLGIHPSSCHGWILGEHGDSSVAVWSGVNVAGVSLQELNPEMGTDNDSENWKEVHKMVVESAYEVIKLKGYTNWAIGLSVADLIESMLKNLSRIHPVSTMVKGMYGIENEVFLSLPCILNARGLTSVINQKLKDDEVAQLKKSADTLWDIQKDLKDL
UniProt Q86YT5, sequence (whole entry, looked up): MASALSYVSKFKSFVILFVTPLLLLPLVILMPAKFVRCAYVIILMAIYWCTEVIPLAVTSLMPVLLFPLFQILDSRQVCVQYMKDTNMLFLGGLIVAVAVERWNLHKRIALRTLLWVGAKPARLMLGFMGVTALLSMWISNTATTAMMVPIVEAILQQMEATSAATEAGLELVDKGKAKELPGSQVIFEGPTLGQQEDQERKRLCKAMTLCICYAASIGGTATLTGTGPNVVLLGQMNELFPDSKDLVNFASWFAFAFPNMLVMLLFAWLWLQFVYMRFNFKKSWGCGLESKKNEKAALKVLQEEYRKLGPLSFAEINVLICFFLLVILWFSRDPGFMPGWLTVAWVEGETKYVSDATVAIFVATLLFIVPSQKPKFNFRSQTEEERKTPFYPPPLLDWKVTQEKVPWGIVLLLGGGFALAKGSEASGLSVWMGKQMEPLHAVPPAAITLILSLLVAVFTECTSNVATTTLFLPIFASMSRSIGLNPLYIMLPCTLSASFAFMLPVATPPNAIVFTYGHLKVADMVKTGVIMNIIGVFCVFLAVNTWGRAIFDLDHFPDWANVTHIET
UniProt P10635, sequence (whole entry, looked up): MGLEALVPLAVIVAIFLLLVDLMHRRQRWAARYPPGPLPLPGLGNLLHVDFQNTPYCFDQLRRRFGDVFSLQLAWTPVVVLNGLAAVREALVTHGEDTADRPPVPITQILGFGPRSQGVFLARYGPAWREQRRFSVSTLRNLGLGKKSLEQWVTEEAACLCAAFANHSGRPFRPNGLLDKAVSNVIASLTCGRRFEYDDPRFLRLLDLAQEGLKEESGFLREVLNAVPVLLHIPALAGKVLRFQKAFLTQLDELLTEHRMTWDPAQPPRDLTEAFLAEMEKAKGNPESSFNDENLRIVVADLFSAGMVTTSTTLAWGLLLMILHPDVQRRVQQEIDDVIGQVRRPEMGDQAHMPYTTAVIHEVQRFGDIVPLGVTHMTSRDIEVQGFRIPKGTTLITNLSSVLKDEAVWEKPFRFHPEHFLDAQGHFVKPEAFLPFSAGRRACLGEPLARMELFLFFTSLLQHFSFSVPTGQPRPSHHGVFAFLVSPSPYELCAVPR

SMILES	target	assay	test system	conditions	IC50
CC(C)NCc1ccc(C[C@@H]2NC(=O)[C@H](N(C)C(=O)c3ccc4ccccc4c3)NC(=O)[C@H](Cc3ccccc3)NC(=O)[C@H](N)CSSC[C@@H](C(=O)N[C@@H](Cc3ccc4ccccc4c3)C(N)=O)NC(=O)[C@H](Cc3ccccc3)NC2=O)cc1	SSTR3 (Homo sapiens, UniProt P32745)	ligand displacement, radioligand		cell membranes	329 nM and 729 nM
[Zn+2]	Glutamate NMDA receptor; Grin1/Grin2a (Grin1/Grin2a, Rattus norvegicus, UniProt P35439+Q00959)			pH 6.8	18 nM
CC(C)[C@H](CO)Nc1nc(Nc2cc(N)cc(Cl)c2)c2ncn(C(C)C)c2n1	FLT1 (Homo sapiens, UniProt P17948)				> 10000 nM
CCCN1CCC(c2cccc(S(C)(=O)=O)c2)CC1	Cytochrome P450 2D6 (CYP2D6, Homo sapiens, UniProt P10635)	enzyme activity, inhibitor	human, liver microsomes	4 h, pH 7.4, with preincubation	2800 nM
O=C(CC1Cc2ccccc2C1)N[C@H](CN1CCCC1)[C@H](O)c1ccc2c(c1)OCCO2	UGCG (Canis lupus familiaris, UniProt A0A8I3MXG6)	enzyme activity, inhibitor	MDCK homogenate		27 nM
O=C(O)c1cc2c(C(F)(F)F)cc(-c3ccccc3)cc2n1O	LDHB (Homo sapiens, UniProt P07195)	inhibitor, NADH fluorescence		NADH competition, together with: 1440 µM pyruvate, 40 µM NADH	123800 ± 700 nM
O=C(O)c1ccc(O)cc1	FAAH	enzyme activity, inhibitor, fluorescence		with preincubation	> 100000 nM
O=C1C(Cl)=C(Cl)C(=O)c2c(O)ccc(O)c21	PABPN1 (Homo sapiens, UniProt Q86U42)	inhibitor, AlphaScreen counterscreen			3680 nM
CC(=O)Nc1ccc(NC(=S)NC(=O)c2ccc(C(C)(C)C)cc2)cc1	SIRT3 (Homo sapiens, UniProt Q9NTG7)				> 300000 nM
Cn1c(=O)c(=O)n(C)c2cc(S(=O)(=O)NNC(=O)CCl)ccc21	DPP4 (Homo sapiens, UniProt P27487)	enzyme activity, inhibitor, fluorescence			0.095 nM
O=C(O)[C@H]1NCC[C@@H]1[C@H](C(=O)O)c1ccccc1	AMPA receptor, rat	binding	cortical synaptosomes	together with: [3H]-AMPA	> 100000 nM
O=C(CSc1nc2ccccc2c(=O)n1-c1ccccc1)Nc1ccc(S(=O)(=O)NC(=S)Nc2ccccc2)cc1	PARP1	enzyme activity, inhibitor, absorbance			78.9 nM
COc1cccc2cc(-c3nnc(SCC(=O)Nc4ccc(Br)cc4)n3-c3ccccc3)oc12	fungal tyrosinase	enzyme activity, inhibitor, dopachrome absorbance		pH 6.8, 37 °C, together with: L-tyrosine substrate	1080 ± 4090 nM
CC(=O)c1cc(C(=O)N[C@@H](C)Cn2ccc(-c3ccc(C#N)c(Cl)c3)n2)[nH]n1	SLC10A1 (Homo sapiens, UniProt Q14973)	transporter uptake, inhibitor			> 10000 nM
O=C(NCc1ccc(F)cc1)C1CCN(S(=O)(=O)c2cc(Cl)cc(Cl)c2)CC1	Na(+)/citrate cotransporter (Homo sapiens, UniProt Q86YT5)	citrate uptake, inhibitor	HepG2	30 min uptake, no preincubation, together with: 10 mM LiCl	~500 nM
CCN(CC)Cc1ccc(S(=O)(=O)N(C)Cc2ccc(F)cc2)cc1	CXCR4 (Homo sapiens, UniProt P61073)	binding, inhibitor, competition binding	MDA-MB-231		11800 nM
NC(=O)c1cccc2c1O[C@H](CN1CCN(c3ncccn3)CC1)CO2	PARP1				> 5000 nM
CCCc1cc(OC)cc(O)c1C(=O)Oc1c(OC)cc(CCC)c(C(=O)O)c1O	Histone lysine acetyltransferase CREBBP, KIX domain; with KID (Crebbp, Mus musculus, UniProt P45481)	fluorescence polarization			64000 nM
O=C(NC1CCCCC1)Oc1cccc(-c2ccccc2)c1	FAAH	enzyme activity, inhibitor, fluorescence		cell membranes	3.1 nM

Some of these lines once more:
SMILES	target	assay	test system	conditions	IC50
NC(=O)c1cccc2c1O[C@H](CN1CCN(c3ncccn3)CC1)CO2	PARP1				> 5000 nM
CCCc1cc(OC)cc(O)c1C(=O)Oc1c(OC)cc(CCC)c(C(=O)O)c1O	Histone lysine acetyltransferase CREBBP, KIX domain; with KID (Crebbp, Mus musculus, UniProt P45481)	fluorescence polarization			64000 nM
